Measurements pooled from the literature.
Compare with care: the assays were run in different laboratories. Numbers after ± are the reported error.
Mapk1: Mitogen-activated protein kinase 1 (Mapk1, Rattus norvegicus, UniProt P63086)
Chain of UniProt P63086 (whole entry, looked up): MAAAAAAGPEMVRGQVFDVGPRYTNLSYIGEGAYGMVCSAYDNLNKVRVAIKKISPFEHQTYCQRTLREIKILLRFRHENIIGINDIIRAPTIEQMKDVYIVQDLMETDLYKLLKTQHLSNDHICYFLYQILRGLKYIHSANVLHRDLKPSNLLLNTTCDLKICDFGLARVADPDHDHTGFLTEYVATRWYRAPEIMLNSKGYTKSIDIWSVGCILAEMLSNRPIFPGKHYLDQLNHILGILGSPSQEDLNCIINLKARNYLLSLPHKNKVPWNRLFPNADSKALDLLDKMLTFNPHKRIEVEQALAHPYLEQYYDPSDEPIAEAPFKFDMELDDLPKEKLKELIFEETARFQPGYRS
Chain of UniProt Q9ULW8 (whole entry, looked up): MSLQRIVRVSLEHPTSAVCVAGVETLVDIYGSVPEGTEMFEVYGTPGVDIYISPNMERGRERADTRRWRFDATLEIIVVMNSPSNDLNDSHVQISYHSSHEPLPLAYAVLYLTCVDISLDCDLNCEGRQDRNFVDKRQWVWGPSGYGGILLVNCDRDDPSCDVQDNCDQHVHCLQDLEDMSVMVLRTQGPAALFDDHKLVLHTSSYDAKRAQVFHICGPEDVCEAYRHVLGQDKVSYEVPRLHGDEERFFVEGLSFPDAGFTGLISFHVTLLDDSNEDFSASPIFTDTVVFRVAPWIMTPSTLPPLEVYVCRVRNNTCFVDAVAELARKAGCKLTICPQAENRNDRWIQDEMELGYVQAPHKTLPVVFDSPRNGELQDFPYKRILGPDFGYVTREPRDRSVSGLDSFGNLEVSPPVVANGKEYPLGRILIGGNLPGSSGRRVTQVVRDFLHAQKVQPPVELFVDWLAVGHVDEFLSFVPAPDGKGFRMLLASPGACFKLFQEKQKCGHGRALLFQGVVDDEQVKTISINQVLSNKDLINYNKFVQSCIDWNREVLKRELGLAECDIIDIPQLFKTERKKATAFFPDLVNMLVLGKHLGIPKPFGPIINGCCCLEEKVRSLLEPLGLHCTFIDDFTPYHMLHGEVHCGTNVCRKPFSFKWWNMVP
Chain of UniProt P10826 (whole entry, looked up): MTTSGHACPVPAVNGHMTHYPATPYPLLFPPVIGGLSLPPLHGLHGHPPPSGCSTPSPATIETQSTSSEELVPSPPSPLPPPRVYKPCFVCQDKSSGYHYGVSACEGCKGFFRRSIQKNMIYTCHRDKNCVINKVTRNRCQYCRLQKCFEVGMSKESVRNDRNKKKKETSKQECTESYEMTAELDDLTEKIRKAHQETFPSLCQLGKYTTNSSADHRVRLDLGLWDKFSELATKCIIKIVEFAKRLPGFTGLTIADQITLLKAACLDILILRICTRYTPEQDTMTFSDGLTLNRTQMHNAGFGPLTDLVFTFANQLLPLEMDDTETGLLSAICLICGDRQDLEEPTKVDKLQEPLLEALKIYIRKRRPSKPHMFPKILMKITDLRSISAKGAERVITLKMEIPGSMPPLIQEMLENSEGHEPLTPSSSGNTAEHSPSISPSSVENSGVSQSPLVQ
Chain of UniProt P22303 (whole entry, looked up): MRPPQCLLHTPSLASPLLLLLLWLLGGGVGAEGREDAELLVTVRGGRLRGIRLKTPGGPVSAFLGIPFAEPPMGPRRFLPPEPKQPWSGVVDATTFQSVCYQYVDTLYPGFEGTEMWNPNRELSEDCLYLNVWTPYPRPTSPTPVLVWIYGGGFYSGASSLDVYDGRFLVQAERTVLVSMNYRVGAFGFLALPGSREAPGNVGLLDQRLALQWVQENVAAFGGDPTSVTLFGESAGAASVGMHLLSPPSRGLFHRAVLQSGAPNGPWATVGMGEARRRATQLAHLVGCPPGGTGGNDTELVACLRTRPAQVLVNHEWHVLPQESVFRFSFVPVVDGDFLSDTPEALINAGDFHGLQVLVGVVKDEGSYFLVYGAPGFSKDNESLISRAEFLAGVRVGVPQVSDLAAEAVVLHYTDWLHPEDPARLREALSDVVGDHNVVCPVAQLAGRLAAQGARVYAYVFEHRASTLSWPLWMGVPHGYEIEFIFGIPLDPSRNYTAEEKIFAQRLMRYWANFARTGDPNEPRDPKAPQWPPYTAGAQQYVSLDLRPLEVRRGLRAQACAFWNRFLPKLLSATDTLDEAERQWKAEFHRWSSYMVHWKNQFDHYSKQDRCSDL
Chain of UniProt Q08638 (whole entry, looked up): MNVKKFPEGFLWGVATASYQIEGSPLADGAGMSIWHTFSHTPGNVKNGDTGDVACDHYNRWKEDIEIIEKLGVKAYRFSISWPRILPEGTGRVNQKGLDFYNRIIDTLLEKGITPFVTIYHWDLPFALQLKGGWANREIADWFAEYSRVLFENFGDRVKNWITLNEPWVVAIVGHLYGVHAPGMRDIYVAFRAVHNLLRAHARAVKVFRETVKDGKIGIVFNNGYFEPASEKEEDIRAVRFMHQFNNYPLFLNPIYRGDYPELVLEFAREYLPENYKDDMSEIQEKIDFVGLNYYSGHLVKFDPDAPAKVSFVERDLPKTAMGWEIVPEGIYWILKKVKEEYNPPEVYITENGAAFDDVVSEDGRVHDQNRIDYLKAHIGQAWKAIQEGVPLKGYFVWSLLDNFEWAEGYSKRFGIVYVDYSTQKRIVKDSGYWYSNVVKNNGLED
Chain of UniProt Q08210 (whole entry, looked up): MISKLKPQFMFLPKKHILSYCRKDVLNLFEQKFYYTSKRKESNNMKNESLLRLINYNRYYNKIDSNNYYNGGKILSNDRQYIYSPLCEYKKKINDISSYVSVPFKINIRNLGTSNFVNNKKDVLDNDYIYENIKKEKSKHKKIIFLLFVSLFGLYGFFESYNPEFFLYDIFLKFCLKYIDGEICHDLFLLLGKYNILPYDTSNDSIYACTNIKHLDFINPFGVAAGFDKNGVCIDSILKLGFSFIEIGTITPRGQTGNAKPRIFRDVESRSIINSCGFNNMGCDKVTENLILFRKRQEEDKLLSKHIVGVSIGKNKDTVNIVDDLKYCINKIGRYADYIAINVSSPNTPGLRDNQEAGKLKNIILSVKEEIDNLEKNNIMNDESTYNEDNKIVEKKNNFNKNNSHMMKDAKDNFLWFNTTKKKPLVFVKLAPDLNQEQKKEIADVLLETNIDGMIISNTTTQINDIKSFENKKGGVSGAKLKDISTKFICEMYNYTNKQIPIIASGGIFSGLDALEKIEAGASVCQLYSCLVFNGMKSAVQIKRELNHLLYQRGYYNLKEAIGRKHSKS
Chain of UniProt P00915 (whole entry, looked up): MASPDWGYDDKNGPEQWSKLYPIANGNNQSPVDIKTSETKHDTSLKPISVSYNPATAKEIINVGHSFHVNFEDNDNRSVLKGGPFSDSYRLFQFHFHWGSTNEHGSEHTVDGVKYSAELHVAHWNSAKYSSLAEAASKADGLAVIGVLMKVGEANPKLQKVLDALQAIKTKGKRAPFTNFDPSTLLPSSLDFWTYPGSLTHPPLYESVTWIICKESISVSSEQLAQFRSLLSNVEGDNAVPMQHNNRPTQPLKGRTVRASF
Chain of UniProt O00748 (whole entry, looked up): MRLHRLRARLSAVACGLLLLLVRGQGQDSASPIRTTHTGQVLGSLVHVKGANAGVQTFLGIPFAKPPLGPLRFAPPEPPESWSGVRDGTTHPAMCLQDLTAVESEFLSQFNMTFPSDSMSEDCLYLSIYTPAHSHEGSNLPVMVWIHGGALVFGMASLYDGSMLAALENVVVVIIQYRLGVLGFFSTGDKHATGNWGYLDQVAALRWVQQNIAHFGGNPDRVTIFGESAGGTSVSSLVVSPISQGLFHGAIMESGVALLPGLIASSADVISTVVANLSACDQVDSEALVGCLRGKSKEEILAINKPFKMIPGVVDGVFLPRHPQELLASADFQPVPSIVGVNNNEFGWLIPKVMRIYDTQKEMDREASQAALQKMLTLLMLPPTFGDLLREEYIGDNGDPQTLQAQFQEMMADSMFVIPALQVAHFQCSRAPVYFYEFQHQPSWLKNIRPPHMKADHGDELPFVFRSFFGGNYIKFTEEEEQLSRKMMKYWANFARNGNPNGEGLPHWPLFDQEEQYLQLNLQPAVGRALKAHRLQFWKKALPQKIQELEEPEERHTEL
Chain of UniProt Q9HB89 (whole entry, looked up): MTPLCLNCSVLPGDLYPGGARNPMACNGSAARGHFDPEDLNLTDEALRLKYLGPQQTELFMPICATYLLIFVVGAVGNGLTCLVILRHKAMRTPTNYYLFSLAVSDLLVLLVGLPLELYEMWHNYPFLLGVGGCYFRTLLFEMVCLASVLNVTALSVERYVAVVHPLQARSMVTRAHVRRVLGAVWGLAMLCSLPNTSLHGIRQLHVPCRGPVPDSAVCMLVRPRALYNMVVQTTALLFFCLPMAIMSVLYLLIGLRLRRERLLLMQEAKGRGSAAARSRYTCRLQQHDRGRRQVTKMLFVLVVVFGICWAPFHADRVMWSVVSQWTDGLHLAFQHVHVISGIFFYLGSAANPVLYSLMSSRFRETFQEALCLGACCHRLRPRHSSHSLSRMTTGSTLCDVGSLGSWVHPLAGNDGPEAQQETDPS

CC(C)C[C@H](NC(=O)[C@H](CO)NC(=O)[C@H](CC(C)C)NC(=O)[C@H](CCCCN)NC(=O)[C@@H]1CCCN1C(=O)[C@H](CCCCN)NC(=O)[C@H](CCCCN)NC(=O)[C@H](CCCCN)NC(=O)[C@H](CCCNC(=N)N)NC(=O)[C@H](CO)NC(=O)[C@H](CS)NC(=O)[C@H](CCCCN)NC(=O)[C@H](C)NC(=O)[C@@H](N)Cc1ccc(O)cc1)C(=O)N[C@@H](CCCCN)C(=O)N[C@@H](C)C(=O)O — IC50 (Mapk1; enzyme activity, inhibitor, fluorescence; pH 7.4): 14300 nM
COCCCC1CCCCN1C(=O)Oc1ccc([N+](=O)[O-])cc1 (stereo not drawn) — IC50 (Cocaine esterase (CES2, Homo sapiens, UniProt O00748); enzyme activity, inhibitor, fluorescence): 2700 nM
CCc1ccc(S(=O)(=O)Nc2ccc(C3CC3)c(F)c2)cc1S(=O)(=O)F — IC50 (GTPase KRas, with RAF (KRAS, Homo sapiens, UniProt P01116); RAF-KRAS interaction, inhibitor, NanoBRET; HEK293T; 24 h): 40000 ± 10000 nM
CC[C@H](C)[C@H](NC(=O)[C@H](CCCNC(=N)N)NC(=O)[C@H](CC(C)C)NC(=O)CNC(=O)[C@H](CCCCN)NC(=O)[C@H](CCCCN)NC(=O)[C@H](CCCNC(=N)N)NC(=O)[C@H](CCCCN)NC(=O)[C@H](CCCCN)NC(=O)[C@H](CCCCN)NC(=O)[C@H](C)NC(=O)[C@@H]1CCCN1C(=O)[C@H](C)NC(=O)[C@@H](N)Cc1ccc(O)cc1)C(=O)N[C@@H](CCCCN)C(=O)NCC(=O)O — IC50 (Mapk1; enzyme activity, inhibitor, fluorescence; pH 7.4): 10100 nM
OC[C@@H]1[C@@H](O)[C@H](O)[C@@H](O)[C@@H]2N[C@H]12 — IC50 (bglA (Thermotoga maritima, UniProt Q08638); enzyme activity, inhibitor; pH 6.8, with preincubation): 130 nM
O=S(=O)(N/N=C/c1ccc(OS(=O)(=O)c2cc(Cl)ccc2Cl)cc1)c1cc(Cl)ccc1Cl — IC50 (CA1 (Homo sapiens, UniProt P00915); enzyme activity, inhibitor, absorbance): 25.6 nM
CC(C)C[C@H](NC(=O)[C@H](CC(=O)O)NC(=O)[C@@H](N)CO)C(=O)N1CCC[C@H]1C(=O)N[C@@H](Cc1ccccc1)C(=O)N[C@H](CCC(=O)O)C(=O)N[C@@H](Cc1ccccc1)C(N)=O — IC50 (Transcriptional regulator PlcR (Bacillus thuringiensis, UniProt A0ACM8Q0N2); reporter gene, inhibitor, lacZ reporter; 407 Cry−; 1 h, phase, late exponential, added at): 2570 ± 343 nM
O=C(O)CCn1c(=O)oc2cc(Cl)c(Cl)cc21 — IC50 (ACHE (Homo sapiens, UniProt P22303); inhibitor): > 100000 nM
Cc1ccc(C2=CCC(C)(C)c3ccc(C(=O)Nc4ccc(C(=O)O)cc4)cc32)cc1 — IC50 (RARB (Homo sapiens, UniProt P10826)): 2600 nM
Cc1cc(Nc2ccc(Cl)cc2)n2nc(C(F)(F)F)nc2n1 — IC50 (PFF0160c (Plasmodium falciparum, UniProt Q08210); enzyme activity, inhibitor, absorbance): 48.6 nM
N[C@H](C(=O)N1CCCC1)C1CCN(c2nccc3c(-c4ncc(Cl)cc4Cl)cccc23)CC1 — IC50 (PADI3 (Homo sapiens, UniProt Q9ULW8); enzyme activity, inhibitor): 106 nM
CCCCCCCCCCCCCCCCCC(=O)NC[C@H]1CC[C@H](C(=O)N[C@@H](CCC(=O)NCCCOCCOCCOCCCNC(=O)COCC(=O)N[C@@H](Cc2ccc(O)cc2)C(=O)NC(C)(Cc2ccccc2)C(=O)N[C@@H](CC(C)C)C(=O)N[C@@H](CCCC)C(=O)N[C@@H](CCCNC(=N)N)C(=O)N2CCC[C@H]2C(=O)N[C@@H](CCCNC(=N)NC)C(=O)N[C@@H](CC(N)=O)C(N)=O)C(=O)O)CC1 (stereo partly drawn) — IC50 (NMUR1 (Homo sapiens, UniProt Q9HB89); IP-1 accumulation, antagonist; 30 min preincubation, together with: 0.4 nM human NMU-25): 28 nM

Excerpt of the above:
CC(C)C[C@H](NC(=O)[C@H](CO)NC(=O)[C@H](CC(C)C)NC(=O)[C@H](CCCCN)NC(=O)[C@@H]1CCCN1C(=O)[C@H](CCCCN)NC(=O)[C@H](CCCCN)NC(=O)[C@H](CCCCN)NC(=O)[C@H](CCCNC(=N)N)NC(=O)[C@H](CO)NC(=O)[C@H](CS)NC(=O)[C@H](CCCCN)NC(=O)[C@H](C)NC(=O)[C@@H](N)Cc1ccc(O)cc1)C(=O)N[C@@H](CCCCN)C(=O)N[C@@H](C)C(=O)O — IC50 (Mapk1; enzyme activity, inhibitor, fluorescence; pH 7.4): 14300 nM
